Assay results gathered from unrelated publications.
Every numbered part comes from another study and shows a few of its results, in no order.

Sample 1 — method: protein-binding microarray; form: hairpin DNA; sample: in vitro; tested at: not given; reference: not given; reading: higher = stronger binding
Target: Microphthalmia-associated transcription factor, full length (MITF, Homo sapiens, UniProt O75030-10, residues 1-413)
Setting: whole hairpin DNA, median over replicate spots
`CACTTAGCCCGTGATTTTGGTCCTCCAAAATCACGGGCTAAGTGACACTC (5mC at 9)` gave a median fluorescence of 9750 a.u.
For `GAGGCCTAGCCGGTGCTGCCTCCTGGCAGCACCGGCTAGGCCTCACACTC (5mC at 11)`, the median fluorescence was 5880 a.u.
With `CACTTAGCACGCGATTTTGGTCCTCCAAAATCGCGTGCTAAGTGACACTC (5mC at 32)` the median fluorescence was 6170 a.u.
The median fluorescence of `CACTTCGCACGTGATTTTGGTCCTCCAAAATCACGTGCGAAGTGACACTC (5mC at 38)` is reported as 25400 a.u.
For `GAGGCCTAGCACGTCGTGCCTCCTGGCACGACGTGCTAGGCCTCACACTC`, the median fluorescence was 6520 a.u.
For `CACTTAGCCCGTGATTTTGGTCCTCCAAAATCACGGGCTAAGTGACACTC`, the median fluorescence was 10100 a.u.
`GAGGCCTAGCACGTTCTGCCTCCTGGCAGAACGTGCTAGGCCTCACACTC` has a median fluorescence of 6030 a.u.
With `GAGGCCGAGCACGTGCTGCCTCCTGGCAGCACGTGCTCGGCCTCACACTC (5mC at 38)` the median fluorescence was 24400 a.u.
With `CACTTCGCACGTGATTTTGGTCCTCCAAAATCACGTGCGAAGTGACACTC` the median fluorescence was 26300 a.u.
`CACTTAGGACGTGATTTTGGTCCTCCAAAATCACGTCCTAAGTGACACTC` gave a median fluorescence of 6300 a.u.

Sample 2 — method: RNA Bind-n-Seq; form: RNA; sample: in vitro; tested at: 365 nM; reference: no-protein control; reading: higher = stronger binding
Target: RNA binding protein fox-1 homolog 2, RRM domain, GST-SBP tag (RBFOX2, Homo sapiens, UniProt O43251-10, residues 100-194)
Setting: natural RNA segment, single round, ends assumed
Target sequence (chain): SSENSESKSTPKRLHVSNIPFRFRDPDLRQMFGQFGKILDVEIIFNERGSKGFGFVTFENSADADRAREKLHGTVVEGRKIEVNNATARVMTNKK
`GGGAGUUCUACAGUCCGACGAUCUAGCCAUUUUAUUUUUUAAGAAACUGCUAAUACUUUCUCCCUAAUGGAAGCCCUGAUCCCCCAGAGAGCUACAGGUCUGCUCCCGACGGGCCUCGGGCCUGACCCGUCCAUGGAAUUCUCGGGUGCCAA` — result for “RBNS enrichment (R)”: 0.417.
`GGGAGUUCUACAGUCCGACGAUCGCCACCAUGCCCAGCUCAGAGGGUUGUUCUCCUAGACUGACCCUGAUCAGUCUAAGAUGGGUGGGGACGUCCUGCCACCUGGGGCAGUCACCUGCCCAGAUCCCAGAAGGUGGAAUUCUCGGGUGCCAA`: “RBNS enrichment (R)” 0.317.
`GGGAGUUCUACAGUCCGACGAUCGCAUUUCAAAAGCUUGAUUGAUGUGUUCAGAGCUAAAUUAAGAGGAGUUUUCAGAUCAAAAACUGGUUACCAUUUUUUGUCAGAGUGUCUGAUGCGGCCACUCAUUCGGCUGGAAUUCUCGGGUGCCAA`: “RBNS enrichment (R)” 2.28.
`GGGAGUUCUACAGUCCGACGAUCCCUUUUGUUUCAAAAAAUGUAAUAUUUUCCCCCAAGCGUUUUAUAUUUAUGUAUUUUGUAUUCAAUGUGAGGCUUAUUAAAAAUAGUGAUUCUAAUGUAAGAAUCAGCUAUGGAAUUCUCGGGUGCCAA` — result for “RBNS enrichment (R)”: 0.671.
`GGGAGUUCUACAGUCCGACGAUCUGCCUUUGCAGUACAUGAAACAUCCCAUUCUUUGUUCUUGAUGGGAUAGGGGUCGUUAUUGUAGCAUAUUUGGUUUCUAAAUCACUGCUUAUUUUUAUUUGCAAUCUCUAUGGAAUUCUCGGGUGCCAA` — result for “RBNS enrichment (R)”: 0.706.
Under “RBNS enrichment (R)”, `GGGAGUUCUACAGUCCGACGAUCUCCUCUCCCCAGCCCCCCUUACCUUCACUCCCAUACUGGACAAGACAUUUUGGACAUGAGUUCAAGGGGGCAGGUUAAUUCCUGGCAUUGCCAGUUUUCUUCAUUCAGAAUGGAAUUCUCGGGUGCCAA` is recorded as 0.389.
For `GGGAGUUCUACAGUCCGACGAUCUGUCUGUUCACAGCAGUAAAAACUUAACUAAGACACAUACUGCUCUGAAAAUAAAAUAACUUUCUAUAAAUGCUUGCUCUCUGGUUCAUUCUAUUUAGAUCUAUCUAUAUUGGAAUUCUCGGGUGCCAA`, “RBNS enrichment (R)” read 0.678.
`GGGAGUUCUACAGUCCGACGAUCAGCUAGAACUCAGGGCGCUGAAUACUAAGCAAGCAUUCUUCCGGGAGCCAUAUUCGCAGUCUUCGUUUGUCAGUCAGCUGGGUGACCUUGAAUAAGCUGCUGCUUACCCCUGGAAUUCUCGGGUGCCAA`: “RBNS enrichment (R)” 0.25.

Sample 3 — method: universal PBM; form: double-stranded DNA, one strand shown; sample: in vitro; tested at: not given; reading: higher = stronger binding
Target: Sal-like protein 4, full length isoform B (SALL4, Homo sapiens, UniProt Q9UJQ4-2, residues 1-616)
Setting: 8-mer, flanks averaged, mean of replicates
Construct (chain): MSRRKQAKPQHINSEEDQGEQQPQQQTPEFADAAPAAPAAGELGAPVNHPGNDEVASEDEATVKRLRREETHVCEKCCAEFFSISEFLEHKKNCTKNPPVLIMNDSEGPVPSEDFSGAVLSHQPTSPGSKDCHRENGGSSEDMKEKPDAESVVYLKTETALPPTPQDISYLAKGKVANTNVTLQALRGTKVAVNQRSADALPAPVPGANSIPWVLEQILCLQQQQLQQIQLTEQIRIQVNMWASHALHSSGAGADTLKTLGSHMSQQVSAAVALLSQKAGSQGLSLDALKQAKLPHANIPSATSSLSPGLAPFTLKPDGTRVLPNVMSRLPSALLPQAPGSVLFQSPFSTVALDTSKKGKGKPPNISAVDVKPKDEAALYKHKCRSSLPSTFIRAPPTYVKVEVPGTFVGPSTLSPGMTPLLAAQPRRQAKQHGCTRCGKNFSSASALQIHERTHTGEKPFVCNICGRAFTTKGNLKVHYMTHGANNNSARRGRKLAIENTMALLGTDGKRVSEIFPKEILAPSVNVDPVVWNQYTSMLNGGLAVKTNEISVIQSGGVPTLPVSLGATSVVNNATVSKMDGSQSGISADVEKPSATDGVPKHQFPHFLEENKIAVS
`ACAAGGCG` has an E-score of -0.132.
`ACGCCACC` gave an E-score of -0.226.
With `AGCTAACG` the E-score was -0.0929.
`CTCCCCAC` has an E-score of -0.192.
`CAAGTCGC` gave an E-score of -0.235.
`ATACGGCG` gave an E-score of -0.0149.
With `GTCTTGAA` the E-score was 0.0697.
`AATCCCGA` has an E-score of 0.0189.
The E-score of `CGTGACAA` is reported as -0.0352.
`AAATTTAG` gave an E-score of 0.274.
`AGGCAATG` gave an E-score of -0.071.
`GTTGATGA` gave an E-score of 0.159.
For `AGAGAGTC`, the E-score was -0.0986.

Single results of other studies
`PhoQ, residues 284 288 289 292 302 303 SCKMEA` has a fold induction of 8.26 (PhoP, residues 12 14 15 18 19 HHYTI (Escherichia coli, UniProt P23836); Sort-seq, item: YFP reporter; E. coli; PhoQ-PhoP variant library, added: 10 µM Mg2+; reference: high Mg2+ state, higher = stronger signaling).

A few entries again (sample 3):
With `AGCTAACG` the E-score was -0.0929.
`CAAGTCGC` gave an E-score of -0.235.
`AATCCCGA` has an E-score of 0.0189.
